Published values collected from several papers.
Compare with care: the assays were run in different laboratories. ± marks the error that the study gave.
DNA polymerase III PolC-type: DNA polymerase III PolC-type (Bacillus subtilis, UniProt P13267)
Sequence of UniProt P13267 (whole entry, looked up): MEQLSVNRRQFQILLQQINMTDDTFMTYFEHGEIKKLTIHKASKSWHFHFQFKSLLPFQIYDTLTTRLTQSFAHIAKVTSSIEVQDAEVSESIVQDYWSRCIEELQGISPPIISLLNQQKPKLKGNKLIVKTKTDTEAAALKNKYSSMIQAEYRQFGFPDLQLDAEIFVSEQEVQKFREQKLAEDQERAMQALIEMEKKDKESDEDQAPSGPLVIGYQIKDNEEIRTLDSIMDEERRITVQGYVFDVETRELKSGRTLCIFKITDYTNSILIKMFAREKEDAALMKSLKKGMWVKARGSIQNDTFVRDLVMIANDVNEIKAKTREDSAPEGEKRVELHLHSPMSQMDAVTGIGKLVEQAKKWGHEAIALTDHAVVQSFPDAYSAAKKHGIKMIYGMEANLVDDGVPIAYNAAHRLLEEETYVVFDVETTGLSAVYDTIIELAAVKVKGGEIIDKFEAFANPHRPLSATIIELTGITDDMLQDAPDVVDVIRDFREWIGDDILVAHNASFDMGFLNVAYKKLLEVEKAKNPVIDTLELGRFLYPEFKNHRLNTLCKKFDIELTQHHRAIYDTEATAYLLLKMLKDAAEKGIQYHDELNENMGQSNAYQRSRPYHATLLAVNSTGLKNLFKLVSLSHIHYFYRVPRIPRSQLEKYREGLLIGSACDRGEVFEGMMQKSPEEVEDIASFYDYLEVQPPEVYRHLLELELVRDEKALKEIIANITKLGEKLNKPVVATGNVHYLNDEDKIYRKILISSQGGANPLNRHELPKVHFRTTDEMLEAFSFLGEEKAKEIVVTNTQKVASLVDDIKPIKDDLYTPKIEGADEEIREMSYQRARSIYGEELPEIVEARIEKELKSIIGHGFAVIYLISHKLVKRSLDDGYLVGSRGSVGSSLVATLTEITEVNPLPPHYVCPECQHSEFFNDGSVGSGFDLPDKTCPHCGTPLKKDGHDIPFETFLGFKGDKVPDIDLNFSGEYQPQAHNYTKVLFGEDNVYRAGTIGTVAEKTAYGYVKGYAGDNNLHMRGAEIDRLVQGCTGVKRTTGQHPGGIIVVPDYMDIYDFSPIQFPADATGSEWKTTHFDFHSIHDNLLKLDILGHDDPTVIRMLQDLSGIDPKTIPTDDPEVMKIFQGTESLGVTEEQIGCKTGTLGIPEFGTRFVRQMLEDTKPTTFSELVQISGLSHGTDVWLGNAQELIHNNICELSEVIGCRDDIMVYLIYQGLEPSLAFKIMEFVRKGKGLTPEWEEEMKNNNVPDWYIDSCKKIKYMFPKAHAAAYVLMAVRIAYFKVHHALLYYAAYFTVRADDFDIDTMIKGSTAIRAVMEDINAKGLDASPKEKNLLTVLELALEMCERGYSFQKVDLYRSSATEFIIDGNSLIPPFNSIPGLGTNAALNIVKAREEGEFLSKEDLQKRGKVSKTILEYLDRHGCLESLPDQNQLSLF
CDA: Cytidine deaminase (CDA, Homo sapiens, UniProt P32320)
Sequence of UniProt P32320 (whole entry, looked up): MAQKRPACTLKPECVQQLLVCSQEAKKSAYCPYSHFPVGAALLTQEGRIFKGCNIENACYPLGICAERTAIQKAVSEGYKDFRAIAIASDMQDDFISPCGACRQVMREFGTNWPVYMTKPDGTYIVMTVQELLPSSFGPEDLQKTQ
Sequence of UniProt P11229 (whole entry, looked up): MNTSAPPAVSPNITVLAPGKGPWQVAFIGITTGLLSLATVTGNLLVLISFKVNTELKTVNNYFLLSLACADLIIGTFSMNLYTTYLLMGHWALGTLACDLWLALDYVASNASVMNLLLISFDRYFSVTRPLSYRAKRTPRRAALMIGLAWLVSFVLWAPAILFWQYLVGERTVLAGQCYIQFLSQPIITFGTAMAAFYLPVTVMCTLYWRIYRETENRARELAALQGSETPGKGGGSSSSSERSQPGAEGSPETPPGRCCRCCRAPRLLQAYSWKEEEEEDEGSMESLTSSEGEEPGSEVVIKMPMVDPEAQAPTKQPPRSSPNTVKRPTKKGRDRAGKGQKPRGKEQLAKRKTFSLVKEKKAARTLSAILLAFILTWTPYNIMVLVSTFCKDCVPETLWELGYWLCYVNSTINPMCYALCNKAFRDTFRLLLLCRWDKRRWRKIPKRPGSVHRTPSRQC
Sequence of UniProt P25100 (whole entry, looked up): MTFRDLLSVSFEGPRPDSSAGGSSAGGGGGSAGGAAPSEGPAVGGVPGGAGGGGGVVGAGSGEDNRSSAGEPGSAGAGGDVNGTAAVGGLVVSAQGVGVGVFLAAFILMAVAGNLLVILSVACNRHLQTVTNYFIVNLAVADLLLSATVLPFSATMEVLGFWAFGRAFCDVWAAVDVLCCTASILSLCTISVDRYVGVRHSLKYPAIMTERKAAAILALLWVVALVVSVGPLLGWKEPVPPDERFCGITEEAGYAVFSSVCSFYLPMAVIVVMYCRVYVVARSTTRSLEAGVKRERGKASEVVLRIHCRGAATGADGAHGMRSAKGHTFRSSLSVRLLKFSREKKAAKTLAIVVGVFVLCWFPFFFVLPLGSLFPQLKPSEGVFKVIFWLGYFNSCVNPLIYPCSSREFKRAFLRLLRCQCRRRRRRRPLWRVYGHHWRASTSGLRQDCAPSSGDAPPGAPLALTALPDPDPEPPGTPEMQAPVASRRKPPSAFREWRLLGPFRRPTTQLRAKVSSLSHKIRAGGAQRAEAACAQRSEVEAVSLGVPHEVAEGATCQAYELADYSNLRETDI
Sequence of UniProt P50613 (whole entry, looked up): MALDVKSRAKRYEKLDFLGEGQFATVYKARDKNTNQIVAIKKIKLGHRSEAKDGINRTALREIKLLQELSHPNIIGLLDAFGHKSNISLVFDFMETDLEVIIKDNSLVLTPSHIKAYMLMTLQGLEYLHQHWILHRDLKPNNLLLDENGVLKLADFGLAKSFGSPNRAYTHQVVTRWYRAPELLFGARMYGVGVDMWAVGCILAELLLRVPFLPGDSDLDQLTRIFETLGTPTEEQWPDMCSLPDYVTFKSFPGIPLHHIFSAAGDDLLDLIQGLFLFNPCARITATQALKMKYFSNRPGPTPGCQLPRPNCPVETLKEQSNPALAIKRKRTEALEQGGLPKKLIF
Sequence of UniProt P30872 (whole entry, looked up): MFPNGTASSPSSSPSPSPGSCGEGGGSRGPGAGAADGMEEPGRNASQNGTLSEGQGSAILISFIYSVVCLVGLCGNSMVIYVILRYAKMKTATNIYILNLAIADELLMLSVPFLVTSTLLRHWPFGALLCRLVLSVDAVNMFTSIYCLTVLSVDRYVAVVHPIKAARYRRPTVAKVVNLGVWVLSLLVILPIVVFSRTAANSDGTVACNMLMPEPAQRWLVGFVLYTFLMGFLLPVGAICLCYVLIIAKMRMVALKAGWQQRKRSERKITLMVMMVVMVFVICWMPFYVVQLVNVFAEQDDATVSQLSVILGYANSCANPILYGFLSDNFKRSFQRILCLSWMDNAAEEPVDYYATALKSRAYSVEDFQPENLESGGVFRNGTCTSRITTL
Sequence of UniProt P52790 (whole entry, unmodified, looked up): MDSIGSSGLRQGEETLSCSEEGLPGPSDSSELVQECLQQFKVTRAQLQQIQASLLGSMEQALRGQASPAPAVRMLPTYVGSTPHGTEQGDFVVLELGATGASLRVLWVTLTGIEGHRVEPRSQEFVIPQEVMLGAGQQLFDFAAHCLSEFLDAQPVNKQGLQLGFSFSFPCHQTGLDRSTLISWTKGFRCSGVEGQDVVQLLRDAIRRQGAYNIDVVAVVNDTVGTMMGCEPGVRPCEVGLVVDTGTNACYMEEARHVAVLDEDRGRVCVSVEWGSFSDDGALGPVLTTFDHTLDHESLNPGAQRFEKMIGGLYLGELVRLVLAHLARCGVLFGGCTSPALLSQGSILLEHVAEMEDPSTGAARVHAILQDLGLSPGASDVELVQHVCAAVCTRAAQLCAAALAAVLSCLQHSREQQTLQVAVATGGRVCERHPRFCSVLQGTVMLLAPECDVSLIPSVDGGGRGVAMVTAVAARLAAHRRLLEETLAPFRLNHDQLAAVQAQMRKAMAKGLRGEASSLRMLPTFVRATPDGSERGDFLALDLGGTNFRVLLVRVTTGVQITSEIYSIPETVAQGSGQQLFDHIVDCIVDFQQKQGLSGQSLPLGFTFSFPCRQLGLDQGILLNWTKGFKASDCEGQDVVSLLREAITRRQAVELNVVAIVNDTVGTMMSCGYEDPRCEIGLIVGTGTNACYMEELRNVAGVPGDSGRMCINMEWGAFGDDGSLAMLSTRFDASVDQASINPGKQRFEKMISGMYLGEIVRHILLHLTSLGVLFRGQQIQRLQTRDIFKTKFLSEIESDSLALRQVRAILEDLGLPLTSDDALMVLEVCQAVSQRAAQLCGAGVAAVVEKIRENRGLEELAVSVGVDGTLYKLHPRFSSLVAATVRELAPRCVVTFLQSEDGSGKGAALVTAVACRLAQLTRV

CCc1cc(Nc2cc(=O)[nH]c(=O)[nH]2)ccc1C — Ki (DNA polymerase III PolC-type; inhibitor): 0.28 µM
OC[C@H]1OC(O)[C@H](O)[C@@H](O)[C@@H]1O (stereo partly drawn) — Ki (Hexokinase-3 (HK3, Homo sapiens, UniProt P52790, A499V); substrate inhibition; mutant A499V, complete substrate inhibition model, together with: ATP 20 mM): 12000 ± 1000 µM
FC1CCN(c2ccc(-c3ccc4sccc4n3)cn2)CC1 — Ki (Alpha-synuclein, aggregates (SNCA, Homo sapiens, UniProt P37840); Parkinson's disease brain homogenate; together with: 1 nM [3H]asyn-44): 0.0319 µM
O=c1[nH]c(NCc2ccc(Cl)c(Cl)c2)nc2ncn(CCCN3CCOCC3)c12 — Ki (DNA polymerase III PolC-type; enzyme activity, inhibitor; truncated, dGTP omitted, 4% DMSO): 0.16 µM
O=c1n(CCCN2CCN(c3cccc(Cl)c3)CC2)nc2ccccn12 — Ki (SSTR1 (Homo sapiens, UniProt P30872)): > 10 µM
Nc1ccn([C@@H]2O[C@H](CO)[C@@H](O)[C@H]2O)c(=O)c1 — Ki (CDA; inhibitor; pH 7.5): 0.5 µM
CNC(=O)[C@@]12C[C@@H]1[C@@H](n1cnc3c(NC)nc(C#C[c-]4cccc4)nc31)[C@H](O)[C@@H]2O.[Fe+2].c1cc[cH-]c1 — Ki (CHRM1 (Homo sapiens, UniProt P11229); radioligand binding (PDSP)): 1.1 µM
CCc1cc(Nc2cc(=O)n(CCCCN3CCOCC3)c(=O)[nH]2)ccc1C — Ki (DNA polymerase III PolC-type; enzyme activity, inhibitor; truncated, dGTP omitted, 4% DMSO): 0.053 µM
O=C1NCCCN1C1OC(CO)C(O)C1O (stereo not drawn) — Ki (CDA; inhibitor; pH 7.5): 440 µM
C[C@@]1(O)CCC[C@H]1n1c(=O)c(C(F)F)cc2cnc(NC3CCN(S(C)(=O)=O)CC3)nc21 — Ki (CDK7 (Homo sapiens, UniProt P50613); kinase activity, inhibitor, fluorescence): 0.293 µM
CNC(=O)[C@@]12C[C@@H]1[C@@H](n1cnc3c(NC)nc(C#Cc4cnccn4)nc31)[C@H](O)[C@@H]2O — Ki (ADRA1D (Homo sapiens, UniProt P25100); radioligand binding (PDSP)): 1 to 10 µM
O=[N+]([O-])c1ncn(C2OC(CO)C(O)C2O)c1S (stereo not drawn) — Ki (CDA; inhibitor; pH 7.5): 256 µM

For quick reference, copied from above:
CCc1cc(Nc2cc(=O)n(CCCCN3CCOCC3)c(=O)[nH]2)ccc1C — Ki (DNA polymerase III PolC-type; enzyme activity, inhibitor; truncated, dGTP omitted, 4% DMSO): 0.053 µM
